Measurements from different studies.
Protocols differ between the studies behind these lines. Values joined by “and” are separate records of one study, mostly repeats; a detail may differ. ± marks the error that the study gave.
CASP7: Caspase-7 (CASP7, Homo sapiens, UniProt P55210)
UniProt P55210, sequence (whole entry, looked up): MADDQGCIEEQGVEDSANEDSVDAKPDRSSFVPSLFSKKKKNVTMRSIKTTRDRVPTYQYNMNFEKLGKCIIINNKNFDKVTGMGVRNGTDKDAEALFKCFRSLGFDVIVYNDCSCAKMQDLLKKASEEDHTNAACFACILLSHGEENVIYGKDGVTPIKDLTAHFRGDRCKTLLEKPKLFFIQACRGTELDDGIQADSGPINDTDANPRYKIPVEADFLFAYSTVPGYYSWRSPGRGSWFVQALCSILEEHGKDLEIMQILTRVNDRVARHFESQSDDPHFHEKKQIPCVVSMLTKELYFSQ
Gria2: Glutamate receptor 2 (Gria2, Rattus norvegicus, UniProt P19491)
UniProt O94966, sequence (whole entry, looked up): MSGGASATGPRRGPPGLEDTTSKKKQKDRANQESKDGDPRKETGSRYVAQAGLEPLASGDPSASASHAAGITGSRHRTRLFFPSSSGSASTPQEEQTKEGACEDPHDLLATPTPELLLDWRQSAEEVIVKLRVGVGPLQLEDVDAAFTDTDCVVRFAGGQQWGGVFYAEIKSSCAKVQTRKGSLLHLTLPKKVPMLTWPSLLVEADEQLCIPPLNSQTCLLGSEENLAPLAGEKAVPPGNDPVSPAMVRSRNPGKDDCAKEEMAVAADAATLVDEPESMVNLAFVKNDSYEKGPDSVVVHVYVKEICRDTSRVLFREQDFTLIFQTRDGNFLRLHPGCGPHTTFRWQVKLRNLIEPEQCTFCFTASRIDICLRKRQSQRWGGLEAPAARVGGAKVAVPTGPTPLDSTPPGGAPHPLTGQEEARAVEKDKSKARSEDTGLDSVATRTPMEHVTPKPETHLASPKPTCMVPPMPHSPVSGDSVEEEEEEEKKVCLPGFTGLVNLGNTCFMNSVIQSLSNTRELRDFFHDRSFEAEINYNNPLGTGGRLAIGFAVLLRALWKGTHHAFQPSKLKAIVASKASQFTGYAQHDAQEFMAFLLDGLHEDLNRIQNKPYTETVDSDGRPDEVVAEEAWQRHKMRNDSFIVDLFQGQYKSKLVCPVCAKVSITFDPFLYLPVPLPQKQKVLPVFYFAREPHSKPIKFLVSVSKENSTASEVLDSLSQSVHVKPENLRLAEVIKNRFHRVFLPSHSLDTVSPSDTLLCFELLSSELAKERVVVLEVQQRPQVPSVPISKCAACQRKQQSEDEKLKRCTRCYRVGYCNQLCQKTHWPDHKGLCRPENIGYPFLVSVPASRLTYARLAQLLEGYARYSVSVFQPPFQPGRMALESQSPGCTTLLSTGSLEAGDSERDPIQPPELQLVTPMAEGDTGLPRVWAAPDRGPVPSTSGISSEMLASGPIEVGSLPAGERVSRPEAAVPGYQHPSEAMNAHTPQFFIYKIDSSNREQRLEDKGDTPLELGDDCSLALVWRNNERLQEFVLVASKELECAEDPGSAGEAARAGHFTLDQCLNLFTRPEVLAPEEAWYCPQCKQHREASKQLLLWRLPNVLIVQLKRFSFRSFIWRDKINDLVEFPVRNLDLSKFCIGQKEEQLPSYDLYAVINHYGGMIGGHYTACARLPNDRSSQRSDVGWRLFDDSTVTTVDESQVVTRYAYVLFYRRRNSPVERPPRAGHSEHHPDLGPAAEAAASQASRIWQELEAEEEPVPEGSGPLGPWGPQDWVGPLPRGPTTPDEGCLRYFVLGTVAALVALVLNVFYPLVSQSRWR
UniProt P46089, sequence (whole entry, looked up): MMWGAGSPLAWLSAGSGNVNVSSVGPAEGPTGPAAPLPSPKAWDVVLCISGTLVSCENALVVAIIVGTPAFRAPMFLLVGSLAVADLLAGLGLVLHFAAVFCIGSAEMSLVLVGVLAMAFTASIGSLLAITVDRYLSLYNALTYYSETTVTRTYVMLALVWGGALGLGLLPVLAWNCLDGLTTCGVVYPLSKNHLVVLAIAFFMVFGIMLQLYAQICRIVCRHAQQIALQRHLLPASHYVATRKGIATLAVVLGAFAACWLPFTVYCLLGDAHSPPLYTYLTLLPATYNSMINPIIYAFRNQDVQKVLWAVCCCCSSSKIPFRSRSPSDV
UniProt P19491, sequence (whole entry, looked up): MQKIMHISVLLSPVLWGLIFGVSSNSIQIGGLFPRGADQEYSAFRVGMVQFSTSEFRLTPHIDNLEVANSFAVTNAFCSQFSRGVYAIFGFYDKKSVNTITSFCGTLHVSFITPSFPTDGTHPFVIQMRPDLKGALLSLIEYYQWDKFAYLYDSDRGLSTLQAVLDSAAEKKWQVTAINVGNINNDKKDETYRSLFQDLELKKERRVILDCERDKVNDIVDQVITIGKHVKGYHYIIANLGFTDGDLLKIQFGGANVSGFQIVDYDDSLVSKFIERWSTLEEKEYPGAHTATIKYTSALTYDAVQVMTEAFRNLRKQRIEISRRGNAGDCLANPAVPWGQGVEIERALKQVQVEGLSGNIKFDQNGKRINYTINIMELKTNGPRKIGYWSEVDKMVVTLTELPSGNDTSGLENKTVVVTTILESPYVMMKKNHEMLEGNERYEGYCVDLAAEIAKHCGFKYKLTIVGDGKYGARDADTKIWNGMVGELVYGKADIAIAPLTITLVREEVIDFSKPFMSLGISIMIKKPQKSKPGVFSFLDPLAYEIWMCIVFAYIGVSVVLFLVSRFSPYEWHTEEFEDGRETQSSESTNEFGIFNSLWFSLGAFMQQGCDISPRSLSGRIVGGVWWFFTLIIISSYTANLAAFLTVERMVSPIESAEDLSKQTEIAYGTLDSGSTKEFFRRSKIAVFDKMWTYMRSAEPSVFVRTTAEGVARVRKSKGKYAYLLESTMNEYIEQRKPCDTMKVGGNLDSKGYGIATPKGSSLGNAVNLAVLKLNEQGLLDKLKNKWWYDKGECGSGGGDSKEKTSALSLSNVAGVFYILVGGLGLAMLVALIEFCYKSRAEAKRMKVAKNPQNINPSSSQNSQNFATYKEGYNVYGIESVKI
UniProt O43193, sequence (whole entry, looked up): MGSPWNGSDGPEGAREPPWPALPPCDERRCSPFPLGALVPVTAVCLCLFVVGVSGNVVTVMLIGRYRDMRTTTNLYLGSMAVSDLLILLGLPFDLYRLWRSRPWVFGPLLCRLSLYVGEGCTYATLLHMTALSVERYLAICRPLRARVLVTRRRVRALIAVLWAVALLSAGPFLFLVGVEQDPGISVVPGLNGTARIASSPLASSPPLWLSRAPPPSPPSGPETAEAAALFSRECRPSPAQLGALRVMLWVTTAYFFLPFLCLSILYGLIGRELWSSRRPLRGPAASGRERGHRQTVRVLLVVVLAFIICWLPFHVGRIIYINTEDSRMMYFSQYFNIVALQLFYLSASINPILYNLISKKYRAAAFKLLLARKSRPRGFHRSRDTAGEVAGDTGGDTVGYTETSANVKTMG
UniProt P34972, sequence (whole entry, looked up): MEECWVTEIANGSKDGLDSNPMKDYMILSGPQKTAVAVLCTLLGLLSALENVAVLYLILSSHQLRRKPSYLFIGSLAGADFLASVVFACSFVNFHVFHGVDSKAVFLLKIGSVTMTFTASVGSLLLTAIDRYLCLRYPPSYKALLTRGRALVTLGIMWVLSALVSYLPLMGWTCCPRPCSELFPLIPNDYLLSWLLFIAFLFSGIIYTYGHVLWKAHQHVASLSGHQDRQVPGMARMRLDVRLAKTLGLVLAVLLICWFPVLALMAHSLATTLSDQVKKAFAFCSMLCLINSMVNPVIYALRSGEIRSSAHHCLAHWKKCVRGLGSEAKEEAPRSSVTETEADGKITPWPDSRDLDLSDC
UniProt P33240, sequence (whole entry, looked up): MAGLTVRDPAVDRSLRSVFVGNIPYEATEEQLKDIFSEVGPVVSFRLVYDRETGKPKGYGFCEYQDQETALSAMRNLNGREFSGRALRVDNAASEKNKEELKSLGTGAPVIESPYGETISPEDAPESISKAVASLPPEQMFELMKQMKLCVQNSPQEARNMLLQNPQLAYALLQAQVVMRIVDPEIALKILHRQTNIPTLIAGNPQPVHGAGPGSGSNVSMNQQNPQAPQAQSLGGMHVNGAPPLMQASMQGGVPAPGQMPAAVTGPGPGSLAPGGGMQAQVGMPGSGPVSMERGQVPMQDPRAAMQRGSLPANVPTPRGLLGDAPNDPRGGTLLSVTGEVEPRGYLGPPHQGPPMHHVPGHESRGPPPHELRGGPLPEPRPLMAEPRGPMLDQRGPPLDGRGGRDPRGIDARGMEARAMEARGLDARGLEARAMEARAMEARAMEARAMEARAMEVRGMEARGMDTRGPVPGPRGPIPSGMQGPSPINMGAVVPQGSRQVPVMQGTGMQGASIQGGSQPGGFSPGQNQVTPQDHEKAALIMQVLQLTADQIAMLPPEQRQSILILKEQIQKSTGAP
UniProt P45983, sequence (whole entry, looked up): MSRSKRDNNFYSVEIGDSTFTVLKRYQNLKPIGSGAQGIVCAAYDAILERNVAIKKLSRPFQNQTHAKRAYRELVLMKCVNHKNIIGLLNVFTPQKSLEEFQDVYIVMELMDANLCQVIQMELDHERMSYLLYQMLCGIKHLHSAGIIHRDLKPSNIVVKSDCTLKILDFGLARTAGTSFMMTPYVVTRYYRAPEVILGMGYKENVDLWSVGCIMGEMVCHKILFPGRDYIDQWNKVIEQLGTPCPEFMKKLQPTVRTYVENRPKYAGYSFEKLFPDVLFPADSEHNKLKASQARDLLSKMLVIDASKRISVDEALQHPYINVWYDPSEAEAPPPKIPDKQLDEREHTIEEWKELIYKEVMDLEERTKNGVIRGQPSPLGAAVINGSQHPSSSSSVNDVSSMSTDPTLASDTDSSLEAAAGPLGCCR

Structure (SMILES) | tested on | assay | test system | setting | scale | endpoint | value
NCc1ccc(NC(=O)c2cc(-c3ccccc3)n(-c3ccccc3)n2)cc1 | Genome polyprotein, NS2B-NS3 protease (dengue virus type 2, UniProt P29990) | enzyme activity, fluorogenic AMC substrate | – | 50 µM | – | inhibition | 37%
COC1CN([C@H]2CC[C@H]([C@@]3(C)Oc4c(Cl)cc(C(=O)NCc5c(SC)cc(C)[nH]c5=O)c(C)c4O3)CC2)C1 | – | RNA-seq, item: ADGRG6 | human, whole blood | dose not given, 24 h | relative to: pretreatment baseline | log2 fold change | 3.86
CCCCCC(O)/C=C/C=O (centres unmarked) | Cleavage stimulation factor subunit 2 (CSTF2, Homo sapiens, UniProt P33240) | competitive isoTOP-ABPP, item: CSTF2 cysteine peptide | Ramos soluble proteome | 100 µM, together with: iodoacetamide probe | relative to: DMSO over compound-treated, higher = stronger cysteine blockade | isoTOP-ABPP competition ratio | 1.7
CC(=O)N1CCC[C@H]1C(=O)N[C@H](C(=O)NCC(=O)N[C@@H](CC(=O)O)C(=O)COC(=O)c1c(C)cccc1C)C(C)(C)C | CASP7 | enzyme activity, inhibitor | – | – | – | kinact/KI | 3800 M⁻¹ s⁻¹
CC(C)Oc1cc(Cl)ccc1CNc1cc(-c2ccccc2)nc2ncnn12 | GPR3 (Homo sapiens, UniProt P46089) | cAMP reporter | human cells | 300 nM | higher is more cAMP | cAMP luminescence | 16900 a.u. and 25200 a.u. and 33900 a.u. and 15800 a.u. and 14600 a.u. and 8530 a.u.
CC(=O)N[C@@H](CCC(C)C)C(=O)N[C@@H](CCCC(=O)O)C(=O)N[C@@H](CO)C(=O)N[C@@H](CC(=O)O)C(=O)COC(=O)c1c(C)cccc1C | CASP7 | enzyme activity, inhibitor | – | – | – | kinact/KI | 3800 M⁻¹ s⁻¹
Cc1ncsc1-c1ccc(C(C)NC(=O)C2CC(O)CN2C(=O)C(NC(=O)CCCCCCCCCCN2CCCC(Nc3ncc(Cl)c(Nc4ccccc4S(=O)(=O)C(C)C)n3)C2)C(C)(C)C)cc1 (centres unmarked) | 22Rv1 | RNA-seq, item: N6AMT1 | – | concentration not given | relative to: DMSO | log2 fold change | -1.27
CCCCCCCC/C=C\CCCCCCCC(=O)NCCO | Trpv1 (Mus musculus, UniProt Q704Y3, S513T) | ion current, agonist, whole-cell patch clamp | – | S513T | relative to: 3 mM 2-APB | maximal open probability | 0.7 ± 0.09
Cc1cc(C)cc(COc2cc3c(cc2OCc2cc(C)cc(C)c2)C2CC(O)(Cc4cn(CCOCCOCCNC(=O)CCCCC5SCC6NC(=O)NC65)nn4)CC(C)N2CC3)c1 (centres unmarked) | CCT8 (Homo sapiens, UniProt P50990) | biotinylated probe pull-down | – | 10 µM probe | relative to: heavy over light | SILAC ratio | 1.31
O=C(O)Cc1cc2c(cc1C(=O)c1cccc(Cl)c1)OCO2 | Gria2 | glutamate-evoked current, whole-cell patch clamp | HEK-293T | concentration not given, glutamate alone after washout, together with: glutamate | – | current amplitude after recovery | 1250 ± 46 pA
O=C1c2sc(-c3ccc(N4CCC(CO)CC4)nc3F)nc2CCN1c1cccnc1 | Motilin receptor (MLNR, Homo sapiens, UniProt O43193) | ligand displacement, radioligand | – | 1 µM | – | inhibition | 8%
CCn1cc(-c2cccc(C(F)(F)F)c2)c2sc(C(=N)NC3CCS(=O)(=O)CC3)cc2c1=O | KAT2B (Homo sapiens, UniProt Q92831) | – | – | – | – | ΔTm | 1.6 °C
CCOC(=O)C(CC)(CCCSCCOCCNC(=O)OC(C)(C)C)NC(=O)c1ccc(C2CC2)c(Cc2ccc(F)cc2)n1 (centres unmarked) | CNR2 (Homo sapiens, UniProt P34972) | cAMP, agonist | – | – | – | Emax | 87%
Cc1ccc(C)c(-c2cc(NC(=O)c3cncc(Br)c3)[nH]n2)c1 | human kinase panel | binding, KINOMEscan | – | 10000 nM, %Ctrl below 1 | – | number of kinases hit | 0
COC(=O)[C@@]1(C)C=C(C(=O)Nc2cccc(C(=O)Nc3ccc(Nc4nccc(-c5cccnc5)n4)c(C)c3)c2)C(=O)CC1 | MAPK8 (Homo sapiens, UniProt P45983) | enzyme activity, inhibitor | – | 4.938 µM, 0 h, unit not given, together with: GSH 10 mM pre-incubation | relative to: vehicle | remaining activity | 0.0507
O=C(O)Cc1cc2c(cc1C(=O)c1ccccc1Br)OCO2 | Gria2 | glutamate-evoked current, whole-cell patch clamp | HEK-293T | concentration not given | – | current amplitude | 260 ± 23 pA
N#CN1CC[C@H](C(=O)Nc2nc3c(s2)CN(C(=O)Cn2cc(COCCOCCOCCOCCNC(=O)CCCC[C@@H]4SC[C@@H]5NC(=O)N[C@@H]54)nn2)CC3)C1 | USP19 (Homo sapiens, UniProt O94966) | probe binding, affinity probe, neutravidin pull-down LC-MS/MS | HEK293T, cell lysate | 5 µM, 1 h, single replicate, unit not given | higher = more pulled down | iBAQ abundance | 878000 and 1.25e+06 and 1.46e+06

Excerpt of the above:
Structure (SMILES) | tested on | assay | test system | setting | scale | endpoint | value
COC1CN([C@H]2CC[C@H]([C@@]3(C)Oc4c(Cl)cc(C(=O)NCc5c(SC)cc(C)[nH]c5=O)c(C)c4O3)CC2)C1 | – | RNA-seq, item: ADGRG6 | human, whole blood | dose not given, 24 h | relative to: pretreatment baseline | log2 fold change | 3.86
Cc1cc(C)cc(COc2cc3c(cc2OCc2cc(C)cc(C)c2)C2CC(O)(Cc4cn(CCOCCOCCNC(=O)CCCCC5SCC6NC(=O)NC65)nn4)CC(C)N2CC3)c1 (centres unmarked) | CCT8 (Homo sapiens, UniProt P50990) | biotinylated probe pull-down | – | 10 µM probe | relative to: heavy over light | SILAC ratio | 1.31
